Assay results gathered from unrelated publications.
Compare with care: the assays were run in different laboratories. ± gives the spread as reported.
Organism: Leishmania infantum

| Structure (SMILES) | assay | system | setting | EC50 |
| --- | --- | --- | --- | --- |
| CC1(C)NC(N)=Nc2nc3ccccc3n21 | parasite growth | – | 72 h, promastigote | > 20 µM |
| COC1=CC(=O)c2cc3c(cc2C1=O)CCCC3(C)C | parasite growth | – | 72 h, promastigote | 7.56 µM |
| C=CCOC(=O)C1C(C=O)=Cc2cc3c(cc2C1c1cc(OC)c(OC)c(OC)c1)OCO3 (centres unmarked) | intracellular amastigote growth, iRFP fluorescence | infected mouse splenocyte explants | 48 h | 29.8 ± 1.6 µM |
| Cc1cc2nc3n(c2cc1C)C(C)(C)NC(N)=N3 | parasite growth | – | 72 h, promastigote | > 20 µM |
| COc1cc([C@@H]2c3cc4c(cc3C=C(C=O)[C@H]2C(=O)N2CCCC2)OCO4)cc(OC)c1OC | parasite growth | – | promastigote | > 100 µM |
| COc1ccc2[nH]c(NC(=N)N)nc2c1 | parasite growth | – | 72 h, promastigote | > 20 µM |
| COc1cc(COC(=O)C2C(C=O)=Cc3cc4c(cc3C2c2cc(OC)c(OC)c(OC)c2)OCO4)cc(OC)c1OC (centres unmarked) | intracellular amastigote growth, iRFP fluorescence | infected mouse splenocyte explants | 48 h | 10.2 ± 0.5 µM |
| CC1(C)CCCc2cc3c(cc21)C(=O)C=CC3=O | parasite growth | – | 72 h, promastigote | 1.2 µM |
| Cc1ncnc2c1c(C(F)(F)F)cn2[C@@H]1O[C@H](CO)[C@@H](O)[C@H]1O | parasite growth, imaging | mouse Macrophage | 5 days, intracellular, amastigote | 3.17 µM |
| CCNC1=C(Cl)C(=O)c2cc3c(cc2C1=O)CCCC3(C)C | – | intracellular amastigotes, ex vivo mouse splenic explants | 72 h | 66.6 ± 3.3 µM |
| COc1cc(C2c3cc4c(cc3C(C(C)C)C3COC(=O)C23)OCO4)cc(OC)c1OC (centres unmarked) | intracellular amastigote growth, iRFP fluorescence | infected mouse splenocyte explants | 48 h | > 100 µM |
| Cc1ncnc2c1c(C1=CCSCC1)cn2[C@@H]1O[C@H](CO)[C@@H](O)[C@H]1O | parasite growth, imaging | mouse Macrophage | 5 days, intracellular, amastigote | 6.96 µM |
| CC(=O)Oc1cc(C)c(OC(C)=O)c2c1CC=C(CCC=C(C)C)C2 | parasite growth | – | 72 h, promastigote | 10.9 µM |
| CC1(C)NC(N)=Nc2nc3c(Cl)cc(Cl)cc3n21 | parasite growth | – | 72 h, promastigote | > 20 µM |

Some of these lines once more:
| Structure (SMILES) | assay | system | setting | EC50 |
| --- | --- | --- | --- | --- |
| CC1(C)NC(N)=Nc2nc3ccccc3n21 | parasite growth | – | 72 h, promastigote | > 20 µM |
